Measured values pooled from the literature.
Compare with care: the assays were run in different laboratories. Numbers after ± are the reported error.
hel308: hel308 1-690 (Methanothermobacter thermautotrophicus, UniProt O26901)
Sequence of UniProt O26901 (whole entry, unmodified, looked up): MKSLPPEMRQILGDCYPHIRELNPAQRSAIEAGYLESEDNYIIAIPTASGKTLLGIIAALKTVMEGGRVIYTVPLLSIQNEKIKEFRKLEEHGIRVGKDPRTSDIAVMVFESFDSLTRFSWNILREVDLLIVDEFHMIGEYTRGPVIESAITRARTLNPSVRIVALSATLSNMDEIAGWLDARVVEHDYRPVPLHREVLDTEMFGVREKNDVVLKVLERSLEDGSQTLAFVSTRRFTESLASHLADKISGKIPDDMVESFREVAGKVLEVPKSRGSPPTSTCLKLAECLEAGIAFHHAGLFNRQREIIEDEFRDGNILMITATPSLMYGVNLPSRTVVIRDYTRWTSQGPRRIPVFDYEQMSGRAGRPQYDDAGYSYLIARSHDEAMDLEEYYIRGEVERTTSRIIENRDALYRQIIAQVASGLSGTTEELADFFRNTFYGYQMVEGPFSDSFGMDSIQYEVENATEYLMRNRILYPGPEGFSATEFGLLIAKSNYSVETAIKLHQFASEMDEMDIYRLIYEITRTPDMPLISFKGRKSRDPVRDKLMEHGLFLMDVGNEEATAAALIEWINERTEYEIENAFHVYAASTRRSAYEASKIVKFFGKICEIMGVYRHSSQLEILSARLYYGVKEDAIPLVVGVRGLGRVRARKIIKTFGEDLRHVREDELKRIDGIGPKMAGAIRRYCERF
Putative PAS/PAC sensor protein full length assumed: Putative PAS/PAC sensor protein full length assumed (Nakamurella multipartita, UniProt C8XJT7)
DHX36: DHX36 53-105 (Homo sapiens, UniProt Q9H2U1)
Sequence of UniProt Q9H2U1 (whole entry, looked up): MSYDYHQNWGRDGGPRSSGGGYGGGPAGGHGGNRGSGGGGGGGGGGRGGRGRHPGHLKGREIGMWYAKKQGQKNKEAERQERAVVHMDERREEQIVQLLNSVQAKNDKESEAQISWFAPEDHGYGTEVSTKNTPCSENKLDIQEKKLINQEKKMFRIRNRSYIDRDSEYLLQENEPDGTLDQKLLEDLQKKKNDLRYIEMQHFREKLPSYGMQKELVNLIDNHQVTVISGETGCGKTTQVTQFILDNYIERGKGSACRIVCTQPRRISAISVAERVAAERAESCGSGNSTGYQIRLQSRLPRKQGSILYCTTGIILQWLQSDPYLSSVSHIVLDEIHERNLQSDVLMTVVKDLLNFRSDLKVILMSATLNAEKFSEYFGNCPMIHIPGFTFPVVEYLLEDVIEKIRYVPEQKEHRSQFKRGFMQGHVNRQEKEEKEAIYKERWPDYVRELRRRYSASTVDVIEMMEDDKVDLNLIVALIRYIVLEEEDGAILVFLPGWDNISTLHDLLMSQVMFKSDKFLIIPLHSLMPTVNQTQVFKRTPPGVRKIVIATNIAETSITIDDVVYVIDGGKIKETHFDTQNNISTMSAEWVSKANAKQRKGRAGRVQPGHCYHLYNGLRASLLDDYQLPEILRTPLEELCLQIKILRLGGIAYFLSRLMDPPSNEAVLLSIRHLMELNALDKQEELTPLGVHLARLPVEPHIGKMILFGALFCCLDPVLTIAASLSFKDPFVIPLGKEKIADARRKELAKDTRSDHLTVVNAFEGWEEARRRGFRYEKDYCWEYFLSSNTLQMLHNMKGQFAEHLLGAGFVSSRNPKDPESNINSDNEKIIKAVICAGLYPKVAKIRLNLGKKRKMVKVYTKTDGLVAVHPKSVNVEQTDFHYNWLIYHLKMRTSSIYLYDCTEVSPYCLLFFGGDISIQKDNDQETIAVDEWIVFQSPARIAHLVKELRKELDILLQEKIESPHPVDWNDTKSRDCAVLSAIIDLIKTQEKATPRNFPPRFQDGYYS
YBX1: YBX1 51-140 (Homo sapiens, UniProt P67809)
Sequence of UniProt P67809 (whole entry, looked up): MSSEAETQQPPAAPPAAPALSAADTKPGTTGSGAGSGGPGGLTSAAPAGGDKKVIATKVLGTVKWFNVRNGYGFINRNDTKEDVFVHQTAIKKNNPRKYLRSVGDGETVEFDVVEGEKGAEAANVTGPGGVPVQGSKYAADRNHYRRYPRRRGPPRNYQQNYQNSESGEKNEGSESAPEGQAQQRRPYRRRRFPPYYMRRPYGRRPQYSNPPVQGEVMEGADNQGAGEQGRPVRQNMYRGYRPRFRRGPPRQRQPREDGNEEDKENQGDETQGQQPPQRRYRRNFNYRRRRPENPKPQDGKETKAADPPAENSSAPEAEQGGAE
HSFA3 full length assumed: HSFA3 full length assumed (Arabidopsis thaliana, UniProt Q8GYY1)
Sequence of UniProt Q8GYY1 (whole entry, looked up): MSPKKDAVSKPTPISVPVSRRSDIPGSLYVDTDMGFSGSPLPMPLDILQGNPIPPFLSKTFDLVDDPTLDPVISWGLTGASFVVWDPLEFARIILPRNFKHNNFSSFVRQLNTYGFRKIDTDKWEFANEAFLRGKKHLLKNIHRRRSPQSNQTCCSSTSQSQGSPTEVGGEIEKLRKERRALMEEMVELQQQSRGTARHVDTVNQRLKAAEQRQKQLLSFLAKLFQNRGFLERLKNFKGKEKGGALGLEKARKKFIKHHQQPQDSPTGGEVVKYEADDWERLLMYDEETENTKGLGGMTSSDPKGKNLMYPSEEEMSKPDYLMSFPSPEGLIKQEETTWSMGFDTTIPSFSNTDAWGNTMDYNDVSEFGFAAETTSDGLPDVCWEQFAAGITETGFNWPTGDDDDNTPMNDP
BZIP23: BZIP23 1-357 (Oryza sativa, UniProt Q6Z312)
Sequence of UniProt P60335 (whole entry, looked up): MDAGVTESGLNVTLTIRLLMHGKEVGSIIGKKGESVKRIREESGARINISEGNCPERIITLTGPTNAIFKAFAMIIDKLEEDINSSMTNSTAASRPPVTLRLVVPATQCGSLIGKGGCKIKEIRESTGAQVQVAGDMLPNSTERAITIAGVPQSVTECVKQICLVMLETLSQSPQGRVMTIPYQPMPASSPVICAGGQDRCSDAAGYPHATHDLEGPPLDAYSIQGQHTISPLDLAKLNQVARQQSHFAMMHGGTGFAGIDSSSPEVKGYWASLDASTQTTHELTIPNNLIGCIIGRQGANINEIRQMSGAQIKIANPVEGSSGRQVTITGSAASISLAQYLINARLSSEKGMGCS
Sequence of UniProt Q6Z312 (whole entry, looked up): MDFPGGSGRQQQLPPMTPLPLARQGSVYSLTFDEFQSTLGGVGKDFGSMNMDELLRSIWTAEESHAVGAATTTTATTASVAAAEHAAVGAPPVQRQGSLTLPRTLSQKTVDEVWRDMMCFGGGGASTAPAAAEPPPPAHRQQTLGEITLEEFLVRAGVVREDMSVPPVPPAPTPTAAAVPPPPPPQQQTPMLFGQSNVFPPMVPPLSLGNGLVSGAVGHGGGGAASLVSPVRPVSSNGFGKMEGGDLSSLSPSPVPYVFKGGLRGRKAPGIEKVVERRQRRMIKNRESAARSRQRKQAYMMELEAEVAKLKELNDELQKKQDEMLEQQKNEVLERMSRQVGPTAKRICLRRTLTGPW
Sequence of UniProt Q9BYJ9 (whole entry, looked up): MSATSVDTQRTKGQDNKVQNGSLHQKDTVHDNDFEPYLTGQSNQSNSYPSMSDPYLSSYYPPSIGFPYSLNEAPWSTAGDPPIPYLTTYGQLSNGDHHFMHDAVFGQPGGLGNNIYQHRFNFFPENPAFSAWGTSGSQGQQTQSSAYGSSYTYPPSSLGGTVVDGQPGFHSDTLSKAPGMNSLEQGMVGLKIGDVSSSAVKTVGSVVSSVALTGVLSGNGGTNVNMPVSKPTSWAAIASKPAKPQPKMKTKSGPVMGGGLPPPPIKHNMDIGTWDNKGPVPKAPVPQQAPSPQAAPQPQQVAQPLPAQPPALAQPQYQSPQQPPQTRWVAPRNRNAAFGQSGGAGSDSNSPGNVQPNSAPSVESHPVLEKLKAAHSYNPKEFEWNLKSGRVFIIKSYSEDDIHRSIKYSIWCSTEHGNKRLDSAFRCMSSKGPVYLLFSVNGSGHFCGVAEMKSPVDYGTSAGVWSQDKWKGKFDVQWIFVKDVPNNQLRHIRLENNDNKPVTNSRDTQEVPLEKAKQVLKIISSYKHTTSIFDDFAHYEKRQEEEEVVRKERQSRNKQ
Sequence of UniProt Q6NS38 (whole entry, looked up): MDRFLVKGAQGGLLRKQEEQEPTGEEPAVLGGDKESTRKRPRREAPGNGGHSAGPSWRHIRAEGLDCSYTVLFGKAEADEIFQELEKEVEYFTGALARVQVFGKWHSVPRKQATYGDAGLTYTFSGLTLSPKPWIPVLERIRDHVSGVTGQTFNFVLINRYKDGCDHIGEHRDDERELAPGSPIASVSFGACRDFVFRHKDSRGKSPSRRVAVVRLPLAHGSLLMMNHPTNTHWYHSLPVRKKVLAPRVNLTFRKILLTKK
Sequence of UniProt Q14934 (whole entry, looked up): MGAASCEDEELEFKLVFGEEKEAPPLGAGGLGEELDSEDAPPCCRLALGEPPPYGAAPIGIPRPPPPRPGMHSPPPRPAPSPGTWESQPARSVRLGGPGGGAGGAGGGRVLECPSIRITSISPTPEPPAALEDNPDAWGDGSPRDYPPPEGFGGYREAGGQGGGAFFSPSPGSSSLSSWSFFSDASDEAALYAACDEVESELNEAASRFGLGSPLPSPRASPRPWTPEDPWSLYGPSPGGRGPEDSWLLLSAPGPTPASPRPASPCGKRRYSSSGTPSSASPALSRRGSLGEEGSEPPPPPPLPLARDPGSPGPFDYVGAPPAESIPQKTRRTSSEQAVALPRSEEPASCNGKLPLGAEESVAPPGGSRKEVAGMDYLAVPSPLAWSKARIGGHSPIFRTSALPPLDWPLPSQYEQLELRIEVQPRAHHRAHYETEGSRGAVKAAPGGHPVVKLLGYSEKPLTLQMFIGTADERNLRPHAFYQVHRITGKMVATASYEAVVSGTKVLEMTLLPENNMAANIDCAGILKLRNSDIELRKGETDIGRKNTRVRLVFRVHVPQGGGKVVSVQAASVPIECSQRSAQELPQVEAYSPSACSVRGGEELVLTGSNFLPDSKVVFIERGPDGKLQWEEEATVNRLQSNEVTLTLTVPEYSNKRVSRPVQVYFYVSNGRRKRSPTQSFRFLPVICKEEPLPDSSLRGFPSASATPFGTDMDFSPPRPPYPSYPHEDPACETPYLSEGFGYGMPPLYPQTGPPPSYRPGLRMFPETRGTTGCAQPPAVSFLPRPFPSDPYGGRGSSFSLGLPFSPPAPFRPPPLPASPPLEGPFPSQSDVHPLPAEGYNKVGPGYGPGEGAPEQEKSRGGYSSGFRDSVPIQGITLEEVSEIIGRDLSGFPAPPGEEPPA

Oligonucleotide	target	test	system	conditions	endpoint	result
DNA 1 CAACGTCATAGACGATTACATTGCTACATGGAGCTGTCTAGAGGATCCGA / DNA 2 GTCGGATCCTCTAGACAGCTCCATGATCACTGGCACTGGTAGAATTCGGC / DNA 3 TGCCGAATTCTACCAGTGCCAGTGAT (dsDNA; partial fork, leading strand only)	hel308	EMSA	folded DNA	–	binding	binds
GGGAGGACGAUGCGGCCCGUACAGCAGCGAUGCGGGUCGCGUGUCCACCCCGGCUCAGACGACUCGCUGAGGAUCCGAGA (stem-loop RNA; stem loop)	Putative PAS/PAC sensor protein full length assumed	RiboGreen well assay	folded RNA	residual dark binding, with: blue light	binding	binds
GCCCTGAAAGATTATGGAATGCGATTAGGGTAAAGGAAGAGAGCATAATCTTTCAGGGC (hairpin DNA; hairpin, 16 bp stem, 27 nt loop)	topA full length assumed (Escherichia coli, UniProt P06612)	fluorescence anisotropy	folded DNA	with: EDTA	Kd	0.31 ± 0.05 nM
GGGUUGCGGAGGGUGGGCCUGGGA (G-quadruplex RNA (Homo sapiens); G4)	DHX36	EMSA	folded RNA	–	binding	binds
GGUUGAACCAGACGACC (structured RNA)	Putative PAS/PAC sensor protein full length assumed	32P well-retention assay	folded RNA	with: blue light	binding	no binding
DNA 1 ATCGATAGTCTCTAGACAGCATGTCCTAGCAAGCCAGAATTCGGCAGCGT / DNA 2 GACGCTGCCGAATTCTGGCTTGCTATGTAACTCTTTGCCCACGTTGACCC / DNA 3 GGACATGCTGTCTAGAGACTATCGAT (dsDNA; fork, lagging strand only)	hel308 1-690 K51L (Methanothermobacter thermautotrophicus, UniProt O26901)	EMSA	folded DNA	–	binding	binds
AAUUGCUACCCAAUGCCUGGCCCAAGGGCAUUCCCAAAGCUUA (ssRNA)	Pcbp1 13-75 (Mus musculus, UniProt P60335)	EMSA	RNA	–	binding	binds
AGGGCGGTGTGGGAAGAGGGAAGAGGGGGAGG (G-quadruplex DNA (Homo sapiens))	MAZ (Homo sapiens, UniProt P56270)	EMSA	folded DNA	–	binding	binds
GGGUUGCGGAGGGUGGGCCUGGGAGGGGU (G-quadruplex RNA (Homo sapiens); G4)	DHX36	EMSA	folded RNA	–	binding	binds
GGUUGAAGCUGACGACC (structured RNA)	Putative PAS/PAC sensor protein full length assumed	32P well-retention assay	folded RNA	with: blue light	binding	no binding
CCCGGATCCGTAGTGACCAAAGCTATATTTACCAACGAATGTAGATGAAAAAATCATCTCCTGCGTTCCCCCATATCTCTAGGATAAAAAGGAATGTAACAATCTCATGGCGTAAGCTGACGAATCAGCAGGAATAATCGCTAGGGACCTAAGAATTAGCATGATAATAGCCACTAAGAAATTACTGCGCTCCATGAAATAGCCATTTTGTGGCAAATGGAGTTGACTAATAATGTCATATGTGAGACGGCTAGTTGAACGAATATTAAATTTTGCTGAATTTTTTATGTCGACGGG (dsDNA)	slyA full length assumed (Escherichia coli, UniProt P0A8W2)	EMSA	double-stranded DNA, one strand shown	–	binding	binds
GGGUUGCGGAGGGUGGGC (G-quadruplex RNA (Homo sapiens); G4)	DHX36	EMSA	folded RNA	–	binding	binds
GGUUUGUUACUGAUAAAGCAGGCAAGACC (ssRNA (Bacillus subtilis); hairpin, two internal loops)	licT 1-56 R27A (Bacillus subtilis, UniProt P39805)	SPR	folded RNA	–	Kd	120000 ± 48000 nM
AGGGUGGGCCUGGGAGGGGUGGUGGCCAUUUUUU (G-quadruplex RNA (Homo sapiens); G4)	DHX36	EMSA	folded RNA	–	binding	binds
GGGAGGACGAUGCGGGUUCAGAAGCGCAGCUCGUUGACCCUCCAUCGGUAGUACUCAGACGACUCGCUGAGGAUCCGAGA (stem-loop RNA; stem loop)	Putative PAS/PAC sensor protein full length assumed	RiboGreen well assay	folded RNA	residual dark binding, with: blue light	binding	binds
GCCAATC (ssDNA)	YBX1	ITC	single-stranded DNA	–	binding	binds
GGGAGGACGAUGCGGUGAUCCACGGGUUACUGGUAUCGCUCAGUGAGGUUGAAACCAGACGACUCGCUGAGGAUCCGAGA (stem-loop RNA; stem loop)	Putative PAS/PAC sensor protein full length assumed	RiboGreen well assay	folded RNA	with: blue light	binding	binds
DNA 1 CCGGGTAAATGCGCG / DNA 2 CGCGCACTTACCCGG (dsDNA; 2-aminopurine, A:C mismatch)	ALKBH2 56-261 (Homo sapiens, UniProt Q6NS38)	2-aminopurine fluorescence	double-stranded DNA	–	binding	binds

Oligonucleotide	target	test	system	conditions	endpoint	result
TCACGCGGGATCAATGTGTTCTTTCAGCTCCGGTCACGCTGACCAGGAATACCTCACTACC (dsDNA; one 5-methyl-dC opposite G)	ROS1 1-1393 Q607A (Arabidopsis thaliana, UniProt Q9SJQ6)	EMSA	double-stranded DNA, one strand shown	130 nM	binding	no binding
GTCGACCAGCTGAGTCGACCAGCTG (ssDNA; N6-methyl-dA)	YTHDF1 370-559 (Homo sapiens, UniProt Q9BYJ9)	pull-down	single-stranded DNA	–	binding	binds
GGAUUGUUACUGAUAAAGCAGGCAAAACC (ssRNA; hairpin, two internal loops)	licT 1-56 N9H (Bacillus subtilis, UniProt P39805)	SPR	folded RNA	–	Kd	190 ± 80 nM
GTATACCTGCAGCTGAGGCGAGCCGTTGGTGTGGATGGCAGGGGCAGGATTCGACTCTAGAGCGCA (ssDNA; stem-loop)	FGFR4 22-369 (Homo sapiens, UniProt P22455)	EMSA	single-stranded DNA	with: Mg2+ 5 mM	binding	no binding
CGUUGAAGCAGACGACC (structured RNA)	Putative PAS/PAC sensor protein full length assumed	32P well-retention assay	folded RNA	with: blue light	binding	no binding
CAAAACGAAGCTTCGCGCG (dsDNA)	HSFA3 full length assumed	EMSA	double-stranded DNA, one strand shown	–	binding	binds
AGGAAGTTTTCCGCTGGT (dsDNA)	NFATC4 400-744 (Homo sapiens, UniProt Q14934)	EMSA	double-stranded DNA, one strand shown	–	binding	binds
GTAGGAGGCGCGGCTGCCACGAGACGAGGTCATTGGCCCCCATGCAGCAC (dsDNA)	BZIP23	EMSA	double-stranded DNA, one strand shown	–	binding	no binding
UUUUCUUUUUUCUUAUUCUUAUU (ssRNA)	NAB3 321-415 E397A (Saccharomyces cerevisiae, UniProt P38996)	fluorescence anisotropy	RNA	–	binding	binds
UAACACUGUCUGGUAAAGAUGG (ssRNA)	ANG 25-147 K64I (Homo sapiens, UniProt P03950)	EMSA	RNA	5-30 min, 37 °C	binding	no binding
GGGAGGACGAUGCGGUAGGGUCCUGCCUGUUGCGAUCCUGGGCAUGCAAAUUCCAGACGACUCGCUGAGGAUCCGAGA (structured RNA)	Putative PAS/PAC sensor protein full length assumed	32P well-retention assay, RiboGreen	folded RNA	with: blue light	binding	no binding
AAACCUUCUUCCCCAGAACCAGCACCACCUUCUGAGGCAAUGGACGCAGA (ssRNA (Homo sapiens); stem-loop, asymmetric bulge)	PCBP1 (Homo sapiens, UniProt Q15365)	EMSA	folded RNA	–	binding	binds
TTAAAATTCATGAACTATA (dsDNA)	HSFA3 full length assumed	EMSA	double-stranded DNA, one strand shown	–	binding	no binding
AACAGCT (ssDNA)	YBX1	ITC	single-stranded DNA	–	binding	binds
GTAGGAGGCGCGGCTGCCACGAGACGAGGTACGTGGCCCCCATGCAGCAC (dsDNA)	BZIP23	competition	double-stranded DNA, one strand shown	–	binding	binds
ATGAAGAGACAACACGCGTGAA (dsDNA)	AP2/ERF domain-containing protein 1-442 (Vitis vinifera, UniProt A5C831)	EMSA	double-stranded DNA, one strand shown	–	binding	binds
GGUUGUAGCAGACGACC (structured RNA)	Putative PAS/PAC sensor protein full length assumed	32P well-retention assay	folded RNA	with: blue light	binding	no binding
DNA 1 CAACGTCATAGACGATTACATTGCTACATGGAGCTGTCTAGAGGATCCGA / DNA 2 GTCGGATCCTCTAGACAGCTCCATGATCACTGGCACTGGTAGAATTCGGC / DNA 3 TGCCGAATTCTACCAGTGCCAGTGATGGACATCTTTGCCCACGTTGACCC / DNA 4 TGGGTCAACGTGGGCAAAGATGTCCTAGCAATGTAATCGTCTATGACGTT (dsDNA; four-way junction, fully paired)	hel308	EMSA	folded DNA	–	binding	binds

A few entries again:
Oligonucleotide	target	test	system	conditions	endpoint	result
GGGUUGCGGAGGGUGGGC (G-quadruplex RNA (Homo sapiens); G4)	DHX36	EMSA	folded RNA	–	binding	binds
GGUUUGUUACUGAUAAAGCAGGCAAGACC (ssRNA (Bacillus subtilis); hairpin, two internal loops)	licT 1-56 R27A (Bacillus subtilis, UniProt P39805)	SPR	folded RNA	–	Kd	120000 ± 48000 nM
AGGGUGGGCCUGGGAGGGGUGGUGGCCAUUUUUU (G-quadruplex RNA (Homo sapiens); G4)	DHX36	EMSA	folded RNA	–	binding	binds
GGGAGGACGAUGCGGGUUCAGAAGCGCAGCUCGUUGACCCUCCAUCGGUAGUACUCAGACGACUCGCUGAGGAUCCGAGA (stem-loop RNA; stem loop)	Putative PAS/PAC sensor protein full length assumed	RiboGreen well assay	folded RNA	residual dark binding, with: blue light	binding	binds
